{"data": "Assay results gathered from unrelated publications", "note": "Every numbered part comes from another study and shows a few of its results, in no order. Several values in a cell are separate wells, animals, samples, runs or records.", "sequence of UniProt Q9UL54 (whole entry, looked up)": "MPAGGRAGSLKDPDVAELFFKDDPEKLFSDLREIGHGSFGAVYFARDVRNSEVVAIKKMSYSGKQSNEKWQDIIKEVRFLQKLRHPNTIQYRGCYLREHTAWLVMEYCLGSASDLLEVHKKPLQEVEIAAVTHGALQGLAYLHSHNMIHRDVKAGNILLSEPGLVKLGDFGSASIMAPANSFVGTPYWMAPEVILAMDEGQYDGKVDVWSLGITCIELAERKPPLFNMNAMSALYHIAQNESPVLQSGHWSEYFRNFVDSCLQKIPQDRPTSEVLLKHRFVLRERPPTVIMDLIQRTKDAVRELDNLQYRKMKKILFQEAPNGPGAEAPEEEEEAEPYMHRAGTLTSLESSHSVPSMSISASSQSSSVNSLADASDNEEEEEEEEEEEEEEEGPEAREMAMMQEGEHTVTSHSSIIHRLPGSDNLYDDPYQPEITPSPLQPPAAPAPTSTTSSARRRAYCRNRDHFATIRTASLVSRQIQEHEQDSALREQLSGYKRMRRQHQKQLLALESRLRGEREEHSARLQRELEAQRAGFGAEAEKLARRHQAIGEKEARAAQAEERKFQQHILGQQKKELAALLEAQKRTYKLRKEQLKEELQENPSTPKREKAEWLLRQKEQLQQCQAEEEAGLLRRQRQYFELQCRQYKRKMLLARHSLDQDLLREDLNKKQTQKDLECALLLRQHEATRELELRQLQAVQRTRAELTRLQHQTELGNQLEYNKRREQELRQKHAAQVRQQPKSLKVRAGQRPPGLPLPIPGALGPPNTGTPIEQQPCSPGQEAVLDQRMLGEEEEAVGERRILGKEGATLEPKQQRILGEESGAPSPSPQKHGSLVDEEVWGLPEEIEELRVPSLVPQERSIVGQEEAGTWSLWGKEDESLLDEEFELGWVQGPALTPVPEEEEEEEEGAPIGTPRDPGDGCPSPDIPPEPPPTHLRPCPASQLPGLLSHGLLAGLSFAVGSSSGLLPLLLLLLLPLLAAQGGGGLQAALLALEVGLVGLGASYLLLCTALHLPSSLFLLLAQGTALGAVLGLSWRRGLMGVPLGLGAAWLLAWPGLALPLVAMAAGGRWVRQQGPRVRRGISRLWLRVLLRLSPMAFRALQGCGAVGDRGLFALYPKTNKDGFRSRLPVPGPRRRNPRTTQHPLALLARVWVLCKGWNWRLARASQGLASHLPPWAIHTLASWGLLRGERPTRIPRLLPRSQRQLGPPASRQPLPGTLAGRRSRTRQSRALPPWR"}
{"data": "Set 1", "Structure (SMILES)": "CC(C)C[C@@H]1NC(=O)[C@@H](N(C)C(=O)[C@H](CC2CCC2)NC(=O)[C@@H]2C[C@@H](F)CN2C(=O)C2(C(F)(F)F)CC(F)(F)C2)CCCCNC(=O)C2(CC2)NC(=O)[C@H](Cc2cc(Cl)ccc2Cl)N(C)C1=O"}
{"cell line": "NCI-H1299", "technique": "Vi-Cell counting", "concentration": "60 nM", "time": "6 days", "baseline": "DMSO", "cell count": "1.01 and 0.789 and 0.965"}
{"cell line": "A549", "technique": "Vi-Cell counting", "concentration": "600 nM", "time": "6 days", "baseline": "DMSO", "cell count": "0.73 and 0.597 and 0.464"}
{"cell line": "A549", "technique": "Vi-Cell counting", "concentration": "200 nM", "time": "6 days", "baseline": "DMSO", "cell count": "0.823 and 0.707 and 0.85"}
{"cell line": "NCI-H446 sgCtrl", "technique": "dose-response", "concentration": "2 nM", "time": "6 d", "baseline": "DMSO-treated", "cell count": "0.296 and 0.334 and 0.382"}
{"cell line": "NCI-H82", "technique": "Vi-Cell counting", "concentration": "200 nM", "time": "6 days", "baseline": "DMSO", "cell count": "1 and 0.98 and 0.82"}
{"cell line": "NCI-H82", "technique": "Vi-Cell counting", "concentration": "600 nM", "time": "6 days", "baseline": "DMSO", "cell count": "0.73 and 0.75 and 0.85"}
{"cell line": "HCC4006", "technique": "Vi-Cell counting", "concentration": "60 nM", "time": "6 days", "baseline": "DMSO", "cell count": "1 and 0.828 and 0.899"}
{"data": "Set 2", "SMILES": "CC(=O)N[C@@H](Cc1c[nH]c2ccccc12)C(=O)N[C@@H](CCC(=O)C=[N+]=[N-])C(=O)OC(C)C", "species": "mice bearing EL4 tumours", "medium": "EL4 tumour", "dose": "dose not given", "together with": "13C5-glutamine"}
{"item": "glutamate M+5", "isotope enrichment": "16% and 13.1% and 14.1% and 17% and 14.6%"}
{"item": "succinate M+4", "isotope enrichment": "13.7% and 10.3% and 14.7% and 10% and 11.8% and 11.3%"}
{"item": "malate M+0", "isotope enrichment": "87.8% and 84.4% and 88.7% and 83.1% and 89.8% and 86.2%"}
{"item": "fumarate M+4", "isotope enrichment": "4.01% and 2.62% and 6.48% and 0% and 2.02%"}
{"data": "Set 3", "Structure (SMILES)": "COc1ccc(-c2c(Nc3ccccn3)[nH]c3c(C4=CCCCC4)c(-c4ccccc4)nn3c2=O)cc1", "species": "human", "medium": "plasma", "route": "oral"}
{"technique": "LC-MS/MS", "dose": "50 mg once daily", "terminal half-life": "43.2 h"}
{"technique": "LC-MS/MS non-compartmental", "dose": "200 mg", "time": "day -3 of cycle 0", "notes": "single dose, median", "terminal half-life": "17.1 h"}
{"dose": "200 mg twice daily", "terminal half-life": "157 h and 228 h and 91.3 h"}
{"technique": "LC-MS/MS", "dose": "400 mg once daily", "terminal half-life": "22.7 h and 22.6 h and 18.1 h and 9.28 h"}
{"data": "Other studies, line by line"}
{"SMILES": "N/C(=N\\[N+](=O)[O-])N/N=C\\c1ccc(-c2cccc([N+](=O)[O-])c2)o1", "target": "Serine/threonine-protein kinase TAO2 (TAOK2, Homo sapiens, UniProt Q9UL54)", "read-out": "enzyme activity", "action": "inhibitor", "concentration": "0.5 µM", "baseline": "control", "endpoint": "remaining activity", "result": "95.3%"}
{"note": "Repeated from above (set 2):"}
{"item": "glutamate M+5", "isotope enrichment": "16% and 13.1% and 14.1% and 17% and 14.6%"}
{"item": "succinate M+4", "isotope enrichment": "13.7% and 10.3% and 14.7% and 10% and 11.8% and 11.3%"}
{"item": "malate M+0", "isotope enrichment": "87.8% and 84.4% and 88.7% and 83.1% and 89.8% and 86.2%"}
